Assay results collected from several papers.
Protocols differ between the studies behind these lines. ± marks the error that the study gave.
Organism: Cryptosporidium parvum
Cells: HCT-8

`N#Cc1cccc2cc[nH]c12` has an EC90 of 500000 nM (parasite growth; 24 h, intracellular).
With `C#CC(C)(C)NC(=O)c1cc2c(Cl)cc(Cl)cc2[nH]1` the inhibition was over 60% (parasite growth, imaging; 11 µM, 72 h, intracellular).
`O=C(Cc1ccc(Cl)cc1)N1CCN(c2ccc3nncn3n2)CC1` has an EC50 of 880 nM (high-content microscopy).
For `CCCc1nn(C)c2c(=O)[nH]c(-c3cc(S(=O)(=O)N4CCN(C)CC4)ccc3OCC)nc12`, the EC50 was over 50000 nM (parasite growth, immunofluorescence microscopy; Iowa; 48 h post infection, compound added at 3 h).
`CC(C)(NC(=O)c1cc2c(F)cc(F)cc2[nH]1)c1cn(C23CC4CC(CC(C4)C2)C3)nn1` gave an inhibition of about 30% (parasite growth, imaging; 11 µM, 72 h, intracellular).
`CNC(=O)c1ccc(-c2cnn3ccc(C(=O)N(CC(=O)O)c4ccc(Cl)cc4)cc23)cc1` has an EC50 of over 20000 nM (cytopathic effect; 48 h).
For `CCN1CCN(C(=O)c2ccc(-n3nc(-c4cccnc4)c4c3-c3sc(NC(C)=O)nc3CC4)cc2)CC1`, the EC50 was 20 nM (parasite growth, immunofluorescence microscopy; Iowa; 48 h post infection, compound added at 3 h).
`COC(=O)c1cc(Cl)ccc1N(C)C(=O)c1ccn2ncc(-c3ccc(C(N)=O)cc3)c2c1` gave an EC50 of 39 ± 8 nM (cytopathic effect; 48 h).
For `CC(C)=CCC/C(C)=C\COC(=O)NC(=O)C12CC3CC(CC(C3)C1)C2`, “lowest effective concentration” read 15 µM (parasite proliferation, immunofluorescence; relative to: infected untreated).
With `O=C(Cc1ccc(F)cc1)N1CCN(c2ccc3nncn3n2)CC1` the EC50 was 1200 nM (high-content microscopy).
`CCOC(=O)CN(C(=O)c1ccn2ncc(-c3ccc(C(=O)NC)cc3)c2c1)c1ccc(Cl)cc1` gave an EC50 of 71 ± 16 nM (cytopathic effect; 48 h).

Repeated from above:
`CC(C)(NC(=O)c1cc2c(F)cc(F)cc2[nH]1)c1cn(C23CC4CC(CC(C4)C2)C3)nn1` gave an inhibition of about 30% (parasite growth, imaging; 11 µM, 72 h, intracellular).
`CNC(=O)c1ccc(-c2cnn3ccc(C(=O)N(CC(=O)O)c4ccc(Cl)cc4)cc23)cc1` has an EC50 of over 20000 nM (cytopathic effect; 48 h).
